Results pooled from the literature.
Every numbered part comes from another study and shows a few of its results, in no order.
Sequence of UniProt P34947 (whole entry, looked up): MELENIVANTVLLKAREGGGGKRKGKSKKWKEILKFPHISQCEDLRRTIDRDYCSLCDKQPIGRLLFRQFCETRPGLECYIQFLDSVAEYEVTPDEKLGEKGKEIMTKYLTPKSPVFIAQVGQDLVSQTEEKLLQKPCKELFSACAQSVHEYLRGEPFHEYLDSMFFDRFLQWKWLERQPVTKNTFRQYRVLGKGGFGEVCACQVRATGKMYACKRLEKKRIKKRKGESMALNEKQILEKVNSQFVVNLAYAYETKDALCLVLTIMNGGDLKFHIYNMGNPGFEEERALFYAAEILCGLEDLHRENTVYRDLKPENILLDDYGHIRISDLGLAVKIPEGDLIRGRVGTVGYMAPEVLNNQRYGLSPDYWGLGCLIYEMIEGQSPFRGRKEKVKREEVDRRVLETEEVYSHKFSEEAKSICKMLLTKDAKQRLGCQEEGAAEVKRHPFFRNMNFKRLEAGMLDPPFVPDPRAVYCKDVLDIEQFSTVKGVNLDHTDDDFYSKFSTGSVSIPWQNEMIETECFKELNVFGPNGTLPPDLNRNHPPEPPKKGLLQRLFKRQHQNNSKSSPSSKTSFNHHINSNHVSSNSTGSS
Sequence of UniProt Q07912 (whole entry, looked up): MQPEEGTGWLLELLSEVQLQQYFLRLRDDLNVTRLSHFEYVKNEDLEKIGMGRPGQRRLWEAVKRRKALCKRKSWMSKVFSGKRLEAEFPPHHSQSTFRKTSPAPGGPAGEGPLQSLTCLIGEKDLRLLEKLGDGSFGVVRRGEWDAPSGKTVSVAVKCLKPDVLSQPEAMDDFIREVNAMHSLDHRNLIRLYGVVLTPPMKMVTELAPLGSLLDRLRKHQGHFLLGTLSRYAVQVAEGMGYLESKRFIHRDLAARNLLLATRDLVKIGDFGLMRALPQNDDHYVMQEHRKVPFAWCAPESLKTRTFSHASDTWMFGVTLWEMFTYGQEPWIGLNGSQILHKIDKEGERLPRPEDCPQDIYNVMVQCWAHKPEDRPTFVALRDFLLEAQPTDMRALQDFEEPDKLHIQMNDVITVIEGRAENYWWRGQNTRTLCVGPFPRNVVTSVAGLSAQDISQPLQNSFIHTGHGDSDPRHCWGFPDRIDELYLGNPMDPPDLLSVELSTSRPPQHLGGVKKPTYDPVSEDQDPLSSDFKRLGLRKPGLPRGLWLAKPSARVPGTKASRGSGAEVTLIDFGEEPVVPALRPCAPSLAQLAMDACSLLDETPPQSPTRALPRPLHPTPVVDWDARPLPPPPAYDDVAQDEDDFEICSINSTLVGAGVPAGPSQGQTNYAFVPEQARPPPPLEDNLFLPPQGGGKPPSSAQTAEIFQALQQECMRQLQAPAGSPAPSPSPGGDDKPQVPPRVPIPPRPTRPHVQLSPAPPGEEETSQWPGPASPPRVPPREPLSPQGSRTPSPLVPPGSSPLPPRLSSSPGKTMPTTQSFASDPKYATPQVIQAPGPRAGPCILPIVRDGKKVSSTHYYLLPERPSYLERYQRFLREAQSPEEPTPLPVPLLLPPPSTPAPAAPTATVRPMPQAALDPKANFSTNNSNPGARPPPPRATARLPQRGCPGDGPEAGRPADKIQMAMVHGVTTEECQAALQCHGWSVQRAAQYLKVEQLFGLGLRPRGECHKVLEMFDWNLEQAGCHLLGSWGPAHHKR
Sequence of UniProt P0C264 (whole entry, looked up): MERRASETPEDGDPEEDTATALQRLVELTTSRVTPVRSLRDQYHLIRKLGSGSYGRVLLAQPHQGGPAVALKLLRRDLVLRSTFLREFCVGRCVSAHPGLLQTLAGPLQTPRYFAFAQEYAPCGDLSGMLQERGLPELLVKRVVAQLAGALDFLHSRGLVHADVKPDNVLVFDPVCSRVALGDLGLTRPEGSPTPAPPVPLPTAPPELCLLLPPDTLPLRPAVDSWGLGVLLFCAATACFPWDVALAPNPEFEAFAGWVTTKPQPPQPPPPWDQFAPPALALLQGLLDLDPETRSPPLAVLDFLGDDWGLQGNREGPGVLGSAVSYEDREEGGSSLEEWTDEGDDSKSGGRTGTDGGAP
Sequence of UniProt Q96NX5 (whole entry, looked up): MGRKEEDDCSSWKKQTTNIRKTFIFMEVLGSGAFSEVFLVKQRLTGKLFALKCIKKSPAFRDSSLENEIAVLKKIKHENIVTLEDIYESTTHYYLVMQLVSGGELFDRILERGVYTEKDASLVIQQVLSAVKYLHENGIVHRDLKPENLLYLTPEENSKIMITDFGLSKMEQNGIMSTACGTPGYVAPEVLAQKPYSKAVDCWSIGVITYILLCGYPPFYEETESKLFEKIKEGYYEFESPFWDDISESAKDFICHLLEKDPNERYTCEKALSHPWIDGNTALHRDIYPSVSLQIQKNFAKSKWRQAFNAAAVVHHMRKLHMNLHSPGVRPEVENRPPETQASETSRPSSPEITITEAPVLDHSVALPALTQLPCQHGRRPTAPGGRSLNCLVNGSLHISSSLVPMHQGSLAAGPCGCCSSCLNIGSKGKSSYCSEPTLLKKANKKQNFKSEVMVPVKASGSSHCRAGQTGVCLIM

Sample 1 — observed: cell-free assay; technique: competition with immobilised ligand; tested at: 1 µM
Compound: N#Cc1ccc(Nc2ccc3[nH]c(=O)[nH]c3c2)c(Cl)c1
For Serine/threonine-protein kinase BRSK1 (BRSK1, Homo sapiens, UniProt Q8TDC3): remaining binding read 100%.
The remaining binding was 100% (Epithelial discoidin domain-containing receptor 1 (DDR1, Homo sapiens, UniProt Q08345)).
The remaining binding was 100% (Fibroblast growth factor receptor 4 (FGFR4, Homo sapiens, UniProt P22455)).
The remaining binding was 100% (Tyrosine-protein kinase Srms (SRMS, Homo sapiens, UniProt Q9H3Y6)).
The remaining binding was 88% (Serine/threonine-protein kinase DCLK3 (DCLK3, Homo sapiens, UniProt Q9C098)).
Serine/threonine-protein kinase NLK (NLK, Homo sapiens, UniProt Q9UBE8) — remaining binding: 100%.
It gave 93% for remaining binding (Tyrosine-protein kinase ABL1, non-phosphorylated (ABL1, Homo sapiens, UniProt P00519, H396P)).
It gave 96% for remaining binding (Uncharacterized serine/threonine-protein kinase SBK3 (SBK3, Homo sapiens, UniProt P0C264)).

Sample 2 — observed: ATPase activity; tested at: concentration not given; notes: average; together with: with ssDNA
Target: DNA polymerase theta, helicase domain (POLQ, Homo sapiens, UniProt O75417)
Sequence of UniProt O75417 (whole entry, looked up): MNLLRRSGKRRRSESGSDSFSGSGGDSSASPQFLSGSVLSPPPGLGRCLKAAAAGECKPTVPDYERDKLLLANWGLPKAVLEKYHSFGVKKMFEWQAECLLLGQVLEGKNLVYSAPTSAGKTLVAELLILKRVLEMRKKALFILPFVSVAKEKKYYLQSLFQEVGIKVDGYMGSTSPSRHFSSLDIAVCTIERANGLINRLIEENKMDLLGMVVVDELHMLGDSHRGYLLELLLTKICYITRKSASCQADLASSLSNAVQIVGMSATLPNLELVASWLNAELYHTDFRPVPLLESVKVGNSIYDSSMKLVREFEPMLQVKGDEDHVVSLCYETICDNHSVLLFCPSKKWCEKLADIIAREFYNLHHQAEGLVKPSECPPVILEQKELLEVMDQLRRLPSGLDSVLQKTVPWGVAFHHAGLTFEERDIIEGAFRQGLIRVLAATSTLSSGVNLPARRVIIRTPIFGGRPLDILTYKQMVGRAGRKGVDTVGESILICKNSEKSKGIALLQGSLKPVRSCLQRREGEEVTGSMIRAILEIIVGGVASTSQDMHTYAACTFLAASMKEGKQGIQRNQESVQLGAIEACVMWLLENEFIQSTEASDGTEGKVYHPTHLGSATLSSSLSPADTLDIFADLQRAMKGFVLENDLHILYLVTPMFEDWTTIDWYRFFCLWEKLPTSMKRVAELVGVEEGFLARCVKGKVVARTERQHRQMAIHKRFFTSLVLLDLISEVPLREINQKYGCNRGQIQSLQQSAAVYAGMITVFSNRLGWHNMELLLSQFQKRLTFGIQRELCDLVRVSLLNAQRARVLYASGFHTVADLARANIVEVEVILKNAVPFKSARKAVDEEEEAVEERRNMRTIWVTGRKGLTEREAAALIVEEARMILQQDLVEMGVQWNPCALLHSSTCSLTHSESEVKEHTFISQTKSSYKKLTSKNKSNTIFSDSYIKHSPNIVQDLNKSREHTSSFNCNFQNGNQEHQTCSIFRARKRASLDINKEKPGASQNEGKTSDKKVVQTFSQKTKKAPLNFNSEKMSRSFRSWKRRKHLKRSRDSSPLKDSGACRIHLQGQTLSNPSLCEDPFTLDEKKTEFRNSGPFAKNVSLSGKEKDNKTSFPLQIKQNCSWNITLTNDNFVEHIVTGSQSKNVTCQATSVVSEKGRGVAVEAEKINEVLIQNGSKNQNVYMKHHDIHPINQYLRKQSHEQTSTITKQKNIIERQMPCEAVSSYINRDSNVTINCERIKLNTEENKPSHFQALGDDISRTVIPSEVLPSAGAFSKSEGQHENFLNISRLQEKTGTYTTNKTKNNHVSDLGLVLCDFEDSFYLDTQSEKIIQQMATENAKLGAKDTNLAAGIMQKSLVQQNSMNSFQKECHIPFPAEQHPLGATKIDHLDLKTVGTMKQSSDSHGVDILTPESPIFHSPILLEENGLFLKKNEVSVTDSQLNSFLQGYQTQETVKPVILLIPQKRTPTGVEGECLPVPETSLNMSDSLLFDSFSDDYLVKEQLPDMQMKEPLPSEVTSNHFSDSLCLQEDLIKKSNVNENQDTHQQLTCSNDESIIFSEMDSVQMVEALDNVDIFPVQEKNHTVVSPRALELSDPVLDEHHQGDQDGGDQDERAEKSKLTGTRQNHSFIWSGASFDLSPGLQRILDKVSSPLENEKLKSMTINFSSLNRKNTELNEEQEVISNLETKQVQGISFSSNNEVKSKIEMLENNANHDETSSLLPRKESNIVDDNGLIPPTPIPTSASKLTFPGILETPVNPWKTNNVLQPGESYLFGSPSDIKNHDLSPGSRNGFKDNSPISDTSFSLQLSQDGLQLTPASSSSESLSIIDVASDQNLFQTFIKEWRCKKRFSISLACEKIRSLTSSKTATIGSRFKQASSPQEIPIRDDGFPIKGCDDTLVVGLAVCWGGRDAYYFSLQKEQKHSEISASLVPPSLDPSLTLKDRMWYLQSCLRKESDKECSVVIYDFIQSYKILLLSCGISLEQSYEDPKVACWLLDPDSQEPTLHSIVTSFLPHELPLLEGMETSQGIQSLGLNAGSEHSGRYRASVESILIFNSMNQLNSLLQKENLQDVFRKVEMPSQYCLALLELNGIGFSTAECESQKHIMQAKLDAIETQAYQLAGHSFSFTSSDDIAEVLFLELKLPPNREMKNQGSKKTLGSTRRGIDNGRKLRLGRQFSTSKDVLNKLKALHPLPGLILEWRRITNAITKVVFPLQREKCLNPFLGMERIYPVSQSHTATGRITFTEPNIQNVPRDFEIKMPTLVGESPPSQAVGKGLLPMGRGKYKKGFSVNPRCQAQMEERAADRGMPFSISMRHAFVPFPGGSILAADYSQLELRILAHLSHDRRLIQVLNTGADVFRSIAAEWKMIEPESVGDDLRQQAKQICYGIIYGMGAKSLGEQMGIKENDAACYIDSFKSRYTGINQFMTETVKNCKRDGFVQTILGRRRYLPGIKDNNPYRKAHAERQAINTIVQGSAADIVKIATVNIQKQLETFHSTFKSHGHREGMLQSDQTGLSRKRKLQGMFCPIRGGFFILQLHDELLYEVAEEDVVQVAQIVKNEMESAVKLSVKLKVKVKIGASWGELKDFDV
With `CCC(C)(Oc1ccc(C2(c3ccc(OC(C)(CC)C(=O)O)cc3)CCCCC2)cc1)C(=O)O` (stereo not drawn) the remaining activity was 66.2%.
`Cc1nc(N=Nc2cc(S(=O)(=O)O)c3cc([N+](=O)[O-])cc(S(=O)(=O)O)c3c2)c(COP(=O)(O)O)c(C=O)c1O` gave a remaining activity of 46.6%.
The remaining activity of `O=C(Nc1noc2ccccc12)c1ccc(F)cc1` is reported as 48.6%.
For `Cc1ccc(-c2n[nH]c3c2C(c2ccccc2Cl)N(c2ccc(C(=O)O)cc2)C3=O)cc1` (stereo not drawn), the remaining activity was 76%.

Sample 3 — tested at: 0.5 µM
SMILES: Cc1nc(Nc2ncc(C(=O)Nc3c(C)cccc3Cl)s2)cc(N2CCN(CCO)CC2)n1
The remaining activity was 98.9% (Serine/threonine-protein kinase D1 (PRKD1, Homo sapiens, UniProt Q15139); enzyme activity, inhibitor; baseline: control).
The remaining activity was 103% (Serine/threonine-protein kinase N2 (PKN2, Homo sapiens, UniProt Q16513); enzyme activity, inhibitor; baseline: control).
It gave 103% for remaining activity (Casein kinase II subunit alpha' (CSNK2A2, Homo sapiens, UniProt P19784); enzyme activity, inhibitor; baseline: control).
For Homeodomain-interacting protein kinase 3 (HIPK3, Homo sapiens, UniProt Q9H422); enzyme activity, inhibitor; baseline: control: remaining activity read 100%.
The remaining activity was 100% (Dual specificity tyrosine-phosphorylation-regulated kinase 4 (DYRK4, Homo sapiens, UniProt Q9NR20); enzyme activity, inhibitor; baseline: control).
The remaining activity was 104% (Calcium/calmodulin-dependent protein kinase type 1G (CAMK1G, Homo sapiens, UniProt Q96NX5); enzyme activity, inhibitor; baseline: control).
The remaining activity was 100% (Mitogen-activated protein kinase 10 (MAPK10, Homo sapiens, UniProt P53779); enzyme activity, inhibitor; baseline: control).
STE20-like serine/threonine-protein kinase (SLK, Homo sapiens, UniProt Q9H2G2); enzyme activity, inhibitor; baseline: control — remaining activity: 81.1%.
NT-3 growth factor receptor (NTRK3, Homo sapiens, UniProt Q16288); enzyme activity, inhibitor; baseline: control — remaining activity: 65.3%.
Activated CDC42 kinase 1 (TNK2, Homo sapiens, UniProt Q07912); kinase activity; together with: ATP 10 µM; baseline: untreated — remaining activity: 2.62%.
For Proto-oncogene tyrosine-protein kinase ROS (ROS1, Homo sapiens, UniProt P08922); enzyme activity, inhibitor; baseline: control: remaining activity read 88.9%.
The remaining activity was 46% (Proto-oncogene tyrosine-protein kinase receptor Ret (RET, Homo sapiens, UniProt P07949); enzyme activity, inhibitor; baseline: control).
It gave 107% for remaining activity (Myotonin-protein kinase (DMPK, Homo sapiens, UniProt Q09013); enzyme activity, inhibitor; baseline: control).
It gave 97.7% for remaining activity (Protein-tyrosine kinase 2-beta (PTK2B, Homo sapiens, UniProt Q14289); enzyme activity, inhibitor; baseline: control).
For Aurora kinase A (AURKA, Homo sapiens, UniProt O14965); enzyme activity, inhibitor; baseline: control: remaining activity read 93.2%.
It gave 100% for remaining activity (Mitogen-activated protein kinase kinase kinase 2 (MAP3K2, Homo sapiens, UniProt Q9Y2U5); enzyme activity, inhibitor; baseline: control).
For G protein-coupled receptor kinase 5 (GRK5, Homo sapiens, UniProt P34947); enzyme activity, inhibitor; baseline: control: remaining activity read 106%.
For Mitogen-activated protein kinase kinase kinase 8 (MAP3K8, Homo sapiens, UniProt P41279); enzyme activity, inhibitor; baseline: control: remaining activity read 97.6%.
The remaining activity was 90.1% (Rho-associated protein kinase 2 (ROCK2, Homo sapiens, UniProt O75116); enzyme activity, inhibitor; baseline: control).
The remaining activity was 92.4% (Cyclin-dependent kinase 2, with cyclin A (CDK2, Homo sapiens, UniProt P24941); enzyme activity, inhibitor; baseline: control).
It gave 112% for remaining activity (Cyclin-dependent kinase 7 (CDK7, Homo sapiens, UniProt P50613); enzyme activity, inhibitor; baseline: control).

Sample 4
Compound: CC(C)n1cnc(-c2ccc(F)cc2)c1-c1ncc(C(=O)Nc2ccc(N3CCN(C)CC3)cc2)[nH]1
The “patients with productive cough” was 0% (human, idiopathic pulmonary fibrosis; 30 mg once daily, trial, treatment-emergent).
phase 2a trial; idiopathic pulmonary fibrosis patients; 60 mg once daily, grade 3 emergent event — “patients with productive cough”: 0%.
For phase 2a trial; idiopathic pulmonary fibrosis patients; 30 mg once daily, grade 5 emergent event: “patients with productive cough” read 0%.
For human, idiopathic pulmonary fibrosis; 60 mg once daily, trial, treatment-emergent: “patients with productive cough” read 0%.
It gave 0% for “patients with productive cough” (phase 2a trial; idiopathic pulmonary fibrosis patients; all arms, grade 1 emergent event).
The “patients with productive cough” was 0% (phase 2a trial; idiopathic pulmonary fibrosis patients; all arms, grade 5 emergent event).
phase 2a trial; idiopathic pulmonary fibrosis patients; 30 mg once daily, grade 1 emergent event — “patients with productive cough”: 0%.
It gave 0% for “patients with productive cough” (phase 2a trial; idiopathic pulmonary fibrosis patients; 60 mg once daily, grade 4 emergent event).
The “patients with productive cough” was 0% (phase 2a trial; idiopathic pulmonary fibrosis patients; 30 mg once daily, grade 4 emergent event).

Some of these lines once more (sample 4):
The “patients with productive cough” was 0% (human, idiopathic pulmonary fibrosis; 30 mg once daily, trial, treatment-emergent).
phase 2a trial; idiopathic pulmonary fibrosis patients; 60 mg once daily, grade 3 emergent event — “patients with productive cough”: 0%.
For phase 2a trial; idiopathic pulmonary fibrosis patients; 30 mg once daily, grade 5 emergent event: “patients with productive cough” read 0%.
For human, idiopathic pulmonary fibrosis; 60 mg once daily, trial, treatment-emergent: “patients with productive cough” read 0%.
